Measurements collected from several papers.
Each numbered part is a random draw from the data of one study; scales do not carry over between parts.

Sample 1
Target: RNA binding protein fox-1 homolog 2, RRM domain, GST-SBP tag (RBFOX2, Homo sapiens, UniProt O43251-10, residues 100-194)
Technique: RNA Bind-n-Seq
Molecule type: RNA
Medium: in vitro
Concentration: 365 nM
Notes: natural RNA segment, single round, ends assumed
Relative to: no-protein control
Reading: higher = stronger binding
Construct (chain): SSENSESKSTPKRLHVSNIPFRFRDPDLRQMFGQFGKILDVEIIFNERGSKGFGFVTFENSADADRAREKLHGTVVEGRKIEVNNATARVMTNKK
Oligonucleotide | RBNS enrichment (R)
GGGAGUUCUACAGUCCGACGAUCUAGUAGGCUUUGAGAUAAUAAACUUACCCGUGUCAAUUAACAUUUAAACUGGCAUAUAGAAAAAAAGGAGGAUUUUUCUGCAUUGUAAAAUAAUCAGUAUGGUUUAUAUGUGGAAUUCUCGGGUGCCAA | 1.01
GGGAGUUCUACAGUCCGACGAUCAAAGCUUAGCCUAGCAGUCAGUGACUUACUUGCACUUUUUGCACAUAGAUAUAAAGUAAAAUUAUGUUAUUAAUUUGGUUUAGUCUGUAAUAUUACACAGUAAUGGUAAUUGGAAUUCUCGGGUGCCAA | 0.356
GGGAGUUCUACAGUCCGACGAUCGCUGAAGAUUUUGGAGCCUAUCCAUGGUUCAGGGCAGUAGAACUGGCUUCCUCUAUGGAUGCUUCCAGCGGACAACCACCAUCUCUGUGUCUCUCUCAUUCUCUCUUCACUGGAAUUCUCGGGUGCCAA | 0.524
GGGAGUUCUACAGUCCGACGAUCUAAUUGUGAGAUUUUUCCCAAAUUGAGAUACAGAAGAAAAUAUAGUUUGAAUCUGAAAUUUAACACUUAUUUAUGUAAAACACUUUAUUUAAGAUAUUUUCUAAUGAUUUUGGAAUUCUCGGGUGCCAA | 0.599
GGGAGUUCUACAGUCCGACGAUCCAAGUUAAUGCAUGUUACUCAGUCGCCCAGUAUGUGAAAGAAGAUAUGAGGGAGACAAAUGAGUUGAUAGUUUGAAUUAUAGGAUUUUUGCCACGUUACCUUGAUGCAAAUGGAAUUCUCGGGUGCCAA | 46.9
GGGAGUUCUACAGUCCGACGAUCUUUGUGGUGGCUAAAGGAUCCAGUCCCCUUGGGUCUGUACAUCCCCUAUCCCAUACACGGGGCAGGAGGACGCCACAGACUGGACGCUGAGCGGCCCAGCUCUGGGGGGCUGGAAUUCUCGGGUGCCAA | 0.242
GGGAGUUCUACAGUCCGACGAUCCUUGUGUUGGGAGGAGGAUGUCCUCACUCGGAUGCCGACACGGGAGACAAUGGGAUGAAAGGCUUCAGUGUGGUCUGAGAGAGGCCGAAGUCCUUUUGCCUGCCGGGGAGUGGAAUUCUCGGGUGCCAA | 1.12
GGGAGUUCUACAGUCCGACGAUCAAAUGGGAGGGGUUGUCCCUCCCCAUCAUCCAUUCCUGUGAGGUGUCUCAAACCAAAGUUAACAGGGAGAGGAUGGGGGAGGGGACAAAUUAGAAUAGGAUAGCAUCUGAUGGAAUUCUCGGGUGCCAA | 1.36
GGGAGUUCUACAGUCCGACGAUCGCUCAGAGAUACUGAUAUGGAUGUGGGAGGGCUCUAAAGUUAGAGGUCACCAACUCCACAGAUGAAACAGUUCAAUAAUGAGGAAACAGGUGAGCCCUGAAAACACAAAAUGGAAUUCUCGGGUGCCAA | 0.436
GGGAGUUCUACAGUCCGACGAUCGUGGCGGGGUCCGCUGCUGGUCUAAUUUGGACCCCCUGCCUCUCAGUGCCCCUGCCCUAGGGGUGUCUGUCUCCAGAGGGGAGGGACAAAUCCCCUACUGGGGCCAUUUCUGGAAUUCUCGGGUGCCAA | 0.454
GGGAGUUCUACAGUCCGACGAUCCUGCUACCACAACCCCAGGCGGGUGUCAACACCAGCAAAUGCUGUGUUUGCAGCAUGCCCAAGAUGACCCUGCUCCUGAACCUCUACCUAGCCACUGGUAGAGAGAGGAGUGGAAUUCUCGGGUGCCAA | 0.245
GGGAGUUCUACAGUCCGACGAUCAAUUAUGUAUUUCUUUGUUAUUUUAUCUUGAAGACGGUACAUAUUUUCGUAUUUGUGCAGAAAAACAAAUUAGGCCUAAAGUAUUGGUUUUUACCUGUACCAUCCACUCCUGGAAUUCUCGGGUGCCAA | 0.317

Sample 2
Target: Histone acetyltransferase KAT6A, both winged helices, GST fusion (KAT6A, Homo sapiens, UniProt Q92794, residues 1-181)
Technique: protein binding microarray
Molecule type: double-stranded DNA, one strand shown
Medium: in vitro
Concentration: not given
Notes: 8-mer, flanks averaged, mean of 2 arrays, mostly near background
Relative to: not given
Reading: higher = stronger binding
Residues (chain): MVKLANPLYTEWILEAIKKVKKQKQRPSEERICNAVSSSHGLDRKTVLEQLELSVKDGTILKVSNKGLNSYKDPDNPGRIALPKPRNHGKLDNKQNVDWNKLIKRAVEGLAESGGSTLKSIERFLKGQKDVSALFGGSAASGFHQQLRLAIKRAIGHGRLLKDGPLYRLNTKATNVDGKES
Oligonucleotide | E-score
CAGCGCCA | 0.13
AGGGGTAC | -0.117
ATGAGGTA | -0.186
GGCGCTCA | 0.235
CTACGCTC | 0.0748
AAGTGGAG | -0.177
CTACACGA | -0.069
GTCCATCA | -0.101
CGTGCGTA | 0.248
GGCAGCAA | -0.0836
ACCGGTGC | 0.139

Sample 3
Target: Interferon regulatory factor 7, full length, phosphomimetic (IRF7, Homo sapiens, UniProt Q92985, residues 1-503, S471D/S472D/S475D/S476D/S477D/S483D/S484D/S487D)
Sequence of UniProt Q92985 (whole entry, unmodified, looked up): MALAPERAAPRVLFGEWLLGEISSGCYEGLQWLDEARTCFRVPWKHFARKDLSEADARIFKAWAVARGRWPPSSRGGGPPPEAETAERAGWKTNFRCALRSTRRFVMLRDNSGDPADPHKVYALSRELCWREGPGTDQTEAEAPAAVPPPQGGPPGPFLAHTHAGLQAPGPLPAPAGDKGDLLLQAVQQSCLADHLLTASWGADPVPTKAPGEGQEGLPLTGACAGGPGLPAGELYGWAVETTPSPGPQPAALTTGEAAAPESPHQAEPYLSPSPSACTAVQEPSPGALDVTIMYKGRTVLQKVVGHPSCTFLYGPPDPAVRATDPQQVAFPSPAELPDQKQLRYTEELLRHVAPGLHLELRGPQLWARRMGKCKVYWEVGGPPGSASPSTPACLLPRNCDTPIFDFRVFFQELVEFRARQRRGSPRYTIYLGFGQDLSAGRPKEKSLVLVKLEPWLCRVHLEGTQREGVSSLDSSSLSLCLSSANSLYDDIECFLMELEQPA
Technique: protein-binding microarray
Molecule type: double-stranded DNA, one strand shown
Medium: in vitro
Concentration: 2200 nM top
Notes: 60-bp whole probe
Added: salmon DNA 0.4 mg/ml
Relative to: random background probes
Reading: higher = stronger binding
Shared flanks, not repeated: GCCTAGCAC … GTCTTGATTCGCTTGACGCTGCTG
Oligonucleotide | fitted relative affinity [z-score]
TTAGAACTGAGTATTGATTAGTGCTAG | -0.492
TTAGGTTCCGGTTTCGGTAAGTGCTAG | 5.25
TCAATTTTGGTTTTCTCACTGTGCTAG | 2.62
ATAGGTTTCGGGTATCGGTTAGTGCTA | 6.51
TTATGTTTCGACTTTCGGTTAGTGCTA | 10.5
ACCTGTTCCCTCATCAGGCTGTGCTAG | 2.09
TTAGGTTTCGACACAGGGTTAGTGCTA | 2.16
GACGATTTCAGTTCCGAGATGTGCTAG | 1.87
TTAGGTATCGACACTTGGTTAGTGCTA | 0.216
GACGGACTGCTGCTGCTGACGTGCTAG | -0.137

Further values, each from its own experiment
Substance | target | test | system | setting | scale | quantity | value
PhoQ, residues 284 288 289 292 302 303 ASSHFY | PhoP, residues 12 14 15 18 19 NQFFI (Escherichia coli, UniProt P23836) | Sort-seq, refers to: YFP reporter | E. coli | PhoQ-PhoP variant library, added: 10 µM Mg2+ | relative to: high Mg2+ state, higher = stronger signaling | fold induction | 3.59

A few entries again (sample 3):
Oligonucleotide | fitted relative affinity [z-score]
TTAGGTTTCGACACAGGGTTAGTGCTA | 2.16
TTAGGTTCCGGTTTCGGTAAGTGCTAG | 5.25
TTAGGTATCGACACTTGGTTAGTGCTA | 0.216
